Experimental data of several laboratories.
Lines come from different studies, so protocols differ.
Chain of UniProt P36507 (whole entry, looked up): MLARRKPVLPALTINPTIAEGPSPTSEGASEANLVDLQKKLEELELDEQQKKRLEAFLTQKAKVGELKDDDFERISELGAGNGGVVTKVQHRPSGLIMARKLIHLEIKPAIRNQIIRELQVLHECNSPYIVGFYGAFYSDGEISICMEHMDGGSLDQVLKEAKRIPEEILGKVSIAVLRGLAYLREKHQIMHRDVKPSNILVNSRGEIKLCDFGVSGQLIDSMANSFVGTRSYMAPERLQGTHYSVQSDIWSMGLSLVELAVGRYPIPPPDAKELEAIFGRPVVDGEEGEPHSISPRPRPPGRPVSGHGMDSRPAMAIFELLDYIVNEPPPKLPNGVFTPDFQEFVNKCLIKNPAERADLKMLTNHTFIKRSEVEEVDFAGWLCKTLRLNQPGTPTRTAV
Chain of UniProt P10721 (whole entry, unmodified, looked up): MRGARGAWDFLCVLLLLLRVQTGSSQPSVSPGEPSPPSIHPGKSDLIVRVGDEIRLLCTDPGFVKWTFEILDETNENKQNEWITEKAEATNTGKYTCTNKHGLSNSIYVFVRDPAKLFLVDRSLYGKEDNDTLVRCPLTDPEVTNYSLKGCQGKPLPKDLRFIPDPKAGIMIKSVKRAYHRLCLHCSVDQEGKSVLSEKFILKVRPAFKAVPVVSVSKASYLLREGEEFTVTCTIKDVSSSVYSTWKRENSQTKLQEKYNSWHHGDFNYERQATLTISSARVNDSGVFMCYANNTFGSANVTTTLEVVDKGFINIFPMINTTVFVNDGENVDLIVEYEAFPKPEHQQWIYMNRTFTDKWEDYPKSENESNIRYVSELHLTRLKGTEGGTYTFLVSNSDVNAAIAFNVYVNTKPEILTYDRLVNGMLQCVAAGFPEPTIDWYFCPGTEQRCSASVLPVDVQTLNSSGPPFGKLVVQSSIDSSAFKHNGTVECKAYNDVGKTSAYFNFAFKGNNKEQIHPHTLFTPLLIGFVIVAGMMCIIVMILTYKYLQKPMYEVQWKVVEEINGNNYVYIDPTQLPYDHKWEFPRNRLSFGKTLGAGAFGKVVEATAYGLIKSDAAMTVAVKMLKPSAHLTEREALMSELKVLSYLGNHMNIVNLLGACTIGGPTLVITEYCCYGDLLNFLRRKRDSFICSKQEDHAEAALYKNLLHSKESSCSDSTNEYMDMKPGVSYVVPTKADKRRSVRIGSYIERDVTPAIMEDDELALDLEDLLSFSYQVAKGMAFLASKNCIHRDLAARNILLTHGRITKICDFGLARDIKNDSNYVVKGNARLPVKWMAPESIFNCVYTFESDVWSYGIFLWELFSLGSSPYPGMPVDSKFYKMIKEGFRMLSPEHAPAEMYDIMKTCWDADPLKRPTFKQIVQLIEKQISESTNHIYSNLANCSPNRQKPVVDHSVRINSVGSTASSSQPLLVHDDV
Chain of UniProt P53778 (whole entry, looked up): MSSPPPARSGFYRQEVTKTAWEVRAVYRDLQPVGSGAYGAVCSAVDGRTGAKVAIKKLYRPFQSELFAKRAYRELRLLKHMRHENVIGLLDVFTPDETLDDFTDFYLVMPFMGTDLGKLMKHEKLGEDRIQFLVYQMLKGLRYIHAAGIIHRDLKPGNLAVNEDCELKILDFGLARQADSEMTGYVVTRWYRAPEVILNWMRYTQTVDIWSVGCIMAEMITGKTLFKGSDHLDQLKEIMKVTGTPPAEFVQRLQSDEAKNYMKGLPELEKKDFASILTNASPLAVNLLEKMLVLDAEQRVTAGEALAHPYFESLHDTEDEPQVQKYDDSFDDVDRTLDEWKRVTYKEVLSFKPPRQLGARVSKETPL

Structure (SMILES)	tested on	assay	system	conditions	quantity	result
OC(C#Cc1ccc(F)c(F)c1)c1ccccc1Cl (stereo not drawn)	Pseudomonas aeruginosa	microbial growth, absorbance		10 µM, 24 h	activity vs control	95%
CNC(=O)c1cc(Oc2ccc(NC(=O)c3ccc(Cl)c(C(F)(F)F)c3)cc2)ccn1	Staphylococcus aureus	microbial growth	NCTC8325		MIC	> 100 µM
O=C(O)/C=C/c1c[nH]cn1	Cryptosporidium parvum	parasite growth, imaging	HCT-8	1 mM, 24 h, intracellular	activity vs control	97.3%
O=C(Nc1ccc2c(c1)OCCO2)Nc1ccc(Cl)c(C(F)(F)F)c1	Staphylococcus aureus	microbial growth	NCTC8325	24 h	MIC	> 100 µM
Cc1ccc(C(=O)C#Cc2ccc(F)c(F)c2)cc1	Pseudomonas aeruginosa	microbial growth, absorbance		10 µM, 24 h	activity vs control	100%
CNc1ncc2c(/C=C/C(=O)N3CCC(OC)CC3)nn(Cc3cccc(C(F)(F)F)c3)c2n1	Mitogen-activated protein kinase 12 (MAPK12, Homo sapiens, UniProt P53778)	enzyme activity, inhibitor, radiometric		1 µM	remaining activity	95%
COc1cc(-c2cncc3c2CN(C)Cc2cc(N4CCNCC4)ccc2-3)cc(OC)c1OC	Dual specificity mitogen-activated protein kinase kinase 2 (MAP2K2, Homo sapiens, UniProt P36507)	enzyme activity, inhibitor		1 µM	remaining activity	102%
C=CC(=O)N1CCC(COCC(=O)N2CCN(c3nc(-c4cnc(N)nc4C(F)F)nc(N4CCOC[C@@H]4C)n3)CC2)CC1	Mast/stem cell growth factor receptor Kit (KIT, Homo sapiens, UniProt P10721, D816V)	binding, competition with immobilised ligand		1 µM	remaining binding	90%
Cc1cc(NS(=O)(=O)c2ccc(N=NN(O)c3ccccc3)cc2)no1		ABTS scavenging		60 µg/mL	inhibition	44.2%
CN(Cc1ccc(C(C)(C)C)cc1)Cc1cccc2ccccc12	Trichophyton rubrum	microbial growth, disc diffusion	ATCC28188	0.00025 µg/mL, 6 days	inhibition zone	11.2 mm
CCN(O)N=Nc1ccc(S(=O)(=O)Nc2nccs2)cc1		ABTS scavenging		60 µg/mL	inhibition	25.7%
CN(Cc1ccc(C2(C(F)(F)F)CC2)cc1)Cc1cccc2ccccc12.Cl	Trichophyton rubrum	microbial killing, broth dilution	ATCC28188	6 days	MFC	2000 µg/mL
O=C(Cc1ccc(-c2ccc(OCCN3CCOCC3)cc2)cn1)NCc1ccccc1	Staphylococcus aureus	microbial growth	NCTC8325		MIC	> 30 µM
O=C(C#Cc1ccc(F)c(F)c1)c1cccc(Cl)c1	Pseudomonas aeruginosa	microbial growth, absorbance		10 µM, 24 h	activity vs control	97%
Cc1ccc2[nH]ccc2c1	Cryptosporidium parvum	parasite growth	HCT-8	24 h, intracellular	EC90	1320 µM
COc1cccc(C(O)C#Cc2ccc(O)c(OC)c2)c1 (stereo not drawn)	Pseudomonas aeruginosa	microbial growth, absorbance		100 µM, 24 h	activity vs control	83%
O=c1[nH]c(=O)c2c[nH]nc2[nH]1	Cryptosporidium parvum	parasite growth, imaging	HCT-8	1 mM, 24 h, intracellular	activity vs control	115%
Cc1ccc(Oc2ccc(NC(=O)CNc3ccccc3-n3cncn3)cc2)cc1	Plasmodium falciparum	parasite growth	3D7	72 h, blood stage	EC50	1.93 µM
